# Results pooled from the literature.
# Every numbered part comes from another study and shows a few of its results, in no order.
# Sequence of UniProt Q52WX2 (whole entry, looked up): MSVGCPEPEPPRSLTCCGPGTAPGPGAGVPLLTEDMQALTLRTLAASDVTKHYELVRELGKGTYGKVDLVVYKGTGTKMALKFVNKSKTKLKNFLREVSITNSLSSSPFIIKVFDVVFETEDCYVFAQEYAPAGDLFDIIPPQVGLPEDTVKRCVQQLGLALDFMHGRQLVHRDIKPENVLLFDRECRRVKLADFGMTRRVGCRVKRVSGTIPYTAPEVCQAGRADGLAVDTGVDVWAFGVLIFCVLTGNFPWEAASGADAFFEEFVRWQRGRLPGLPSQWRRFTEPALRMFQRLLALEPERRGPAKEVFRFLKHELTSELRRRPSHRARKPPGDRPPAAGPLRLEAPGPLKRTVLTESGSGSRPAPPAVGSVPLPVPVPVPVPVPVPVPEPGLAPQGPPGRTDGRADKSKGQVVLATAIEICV
# Sequence of UniProt P31751 (whole entry, looked up): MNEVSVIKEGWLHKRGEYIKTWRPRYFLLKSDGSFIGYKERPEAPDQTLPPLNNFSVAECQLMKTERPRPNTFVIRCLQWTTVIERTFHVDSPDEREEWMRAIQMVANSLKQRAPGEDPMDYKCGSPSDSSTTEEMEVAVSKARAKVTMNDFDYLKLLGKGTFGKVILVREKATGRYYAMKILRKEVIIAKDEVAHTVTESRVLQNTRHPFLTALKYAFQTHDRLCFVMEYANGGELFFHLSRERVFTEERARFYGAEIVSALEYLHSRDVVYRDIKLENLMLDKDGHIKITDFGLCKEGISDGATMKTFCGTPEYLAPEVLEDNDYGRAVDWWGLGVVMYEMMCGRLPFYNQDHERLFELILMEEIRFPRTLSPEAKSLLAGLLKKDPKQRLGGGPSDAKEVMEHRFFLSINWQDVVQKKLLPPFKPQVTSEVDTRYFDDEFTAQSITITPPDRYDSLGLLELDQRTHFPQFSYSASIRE
# Sequence of UniProt Q15831 (whole entry, looked up): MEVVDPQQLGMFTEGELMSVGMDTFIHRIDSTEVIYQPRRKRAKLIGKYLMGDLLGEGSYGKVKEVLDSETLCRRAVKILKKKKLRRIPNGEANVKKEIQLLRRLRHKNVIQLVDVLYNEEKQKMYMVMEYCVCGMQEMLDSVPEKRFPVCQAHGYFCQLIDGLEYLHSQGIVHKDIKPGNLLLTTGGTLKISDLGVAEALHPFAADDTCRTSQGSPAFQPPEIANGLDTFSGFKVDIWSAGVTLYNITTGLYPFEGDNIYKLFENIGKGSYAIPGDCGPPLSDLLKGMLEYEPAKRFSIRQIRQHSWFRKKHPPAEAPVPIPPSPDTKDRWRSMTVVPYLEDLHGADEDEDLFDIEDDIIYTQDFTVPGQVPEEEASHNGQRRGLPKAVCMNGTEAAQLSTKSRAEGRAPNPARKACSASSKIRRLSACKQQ
# Sequence of UniProt Q8N752 (whole entry, looked up): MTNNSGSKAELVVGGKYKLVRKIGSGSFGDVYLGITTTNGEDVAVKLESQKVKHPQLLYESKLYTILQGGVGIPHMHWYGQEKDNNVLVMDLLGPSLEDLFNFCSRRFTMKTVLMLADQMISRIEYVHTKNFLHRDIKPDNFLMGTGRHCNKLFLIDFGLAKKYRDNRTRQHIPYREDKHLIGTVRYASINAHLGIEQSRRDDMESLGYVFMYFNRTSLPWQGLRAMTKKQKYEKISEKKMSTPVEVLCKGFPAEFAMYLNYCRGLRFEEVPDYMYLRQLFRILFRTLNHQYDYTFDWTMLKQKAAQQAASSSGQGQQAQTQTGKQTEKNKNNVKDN
# Sequence of UniProt P53350 (whole entry, looked up): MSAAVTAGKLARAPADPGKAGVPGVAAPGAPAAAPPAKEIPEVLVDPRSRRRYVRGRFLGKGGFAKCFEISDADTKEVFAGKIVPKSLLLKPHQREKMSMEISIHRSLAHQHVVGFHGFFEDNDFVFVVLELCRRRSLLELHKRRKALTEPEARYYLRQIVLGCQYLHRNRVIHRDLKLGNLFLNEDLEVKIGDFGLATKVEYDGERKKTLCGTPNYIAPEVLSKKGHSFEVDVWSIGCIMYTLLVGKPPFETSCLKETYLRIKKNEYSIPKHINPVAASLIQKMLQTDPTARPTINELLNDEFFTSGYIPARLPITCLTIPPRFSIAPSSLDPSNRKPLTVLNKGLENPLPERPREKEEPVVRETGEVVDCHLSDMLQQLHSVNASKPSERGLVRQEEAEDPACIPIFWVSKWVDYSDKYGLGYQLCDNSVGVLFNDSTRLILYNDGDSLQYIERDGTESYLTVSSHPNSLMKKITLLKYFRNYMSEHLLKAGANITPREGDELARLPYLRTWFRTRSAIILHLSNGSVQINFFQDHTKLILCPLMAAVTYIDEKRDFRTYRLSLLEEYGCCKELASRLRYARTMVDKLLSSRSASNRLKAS
# Sequence of UniProt Q9UK32 (whole entry, looked up): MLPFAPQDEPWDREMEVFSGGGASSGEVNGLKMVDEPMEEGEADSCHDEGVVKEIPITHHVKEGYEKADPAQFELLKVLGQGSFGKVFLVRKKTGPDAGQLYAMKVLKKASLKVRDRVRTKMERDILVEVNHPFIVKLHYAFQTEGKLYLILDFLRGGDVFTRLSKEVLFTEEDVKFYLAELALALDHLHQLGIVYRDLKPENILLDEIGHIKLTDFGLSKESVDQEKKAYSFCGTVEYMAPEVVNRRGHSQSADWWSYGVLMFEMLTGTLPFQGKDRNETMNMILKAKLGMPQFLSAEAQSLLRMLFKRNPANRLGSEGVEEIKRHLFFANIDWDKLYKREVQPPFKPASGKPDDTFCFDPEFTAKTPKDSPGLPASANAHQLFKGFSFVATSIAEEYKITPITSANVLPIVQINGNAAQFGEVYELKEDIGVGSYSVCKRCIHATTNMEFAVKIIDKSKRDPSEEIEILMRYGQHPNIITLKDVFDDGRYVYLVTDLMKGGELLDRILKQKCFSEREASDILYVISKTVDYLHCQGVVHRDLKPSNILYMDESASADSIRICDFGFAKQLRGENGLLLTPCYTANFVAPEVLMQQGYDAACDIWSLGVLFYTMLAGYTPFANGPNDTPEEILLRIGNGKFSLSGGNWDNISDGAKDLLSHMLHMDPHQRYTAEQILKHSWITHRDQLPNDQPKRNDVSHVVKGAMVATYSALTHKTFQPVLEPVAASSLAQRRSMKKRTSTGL

# Block 1
# SMILES: O=C1CCC(N2Cc3cc(C4CCN(Cc5ccccc5)CC4)ccc3C2=O)C(=O)N1 (stereo not drawn)
# Target: CRBN/Zinc finger protein Helios (Homo sapiens, UniProt Q96SW2+Q9UKS7)
# Sequence of UniProt Q9UKS7 (whole entry, looked up): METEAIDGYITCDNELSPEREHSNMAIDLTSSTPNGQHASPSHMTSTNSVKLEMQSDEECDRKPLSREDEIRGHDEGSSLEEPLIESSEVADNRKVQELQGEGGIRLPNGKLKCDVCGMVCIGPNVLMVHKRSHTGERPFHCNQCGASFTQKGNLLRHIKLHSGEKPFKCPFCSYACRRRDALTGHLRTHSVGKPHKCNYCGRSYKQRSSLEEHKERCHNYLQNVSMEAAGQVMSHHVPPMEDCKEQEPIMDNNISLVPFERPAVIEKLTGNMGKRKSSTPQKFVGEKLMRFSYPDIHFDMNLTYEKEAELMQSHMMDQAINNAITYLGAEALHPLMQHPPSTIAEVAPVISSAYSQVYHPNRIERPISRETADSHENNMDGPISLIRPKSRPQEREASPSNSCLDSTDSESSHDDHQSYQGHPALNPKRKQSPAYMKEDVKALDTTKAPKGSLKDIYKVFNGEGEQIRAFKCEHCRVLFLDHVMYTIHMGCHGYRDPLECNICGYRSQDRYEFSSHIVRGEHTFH
# Sequence of UniProt Q96SW2 (whole entry, looked up): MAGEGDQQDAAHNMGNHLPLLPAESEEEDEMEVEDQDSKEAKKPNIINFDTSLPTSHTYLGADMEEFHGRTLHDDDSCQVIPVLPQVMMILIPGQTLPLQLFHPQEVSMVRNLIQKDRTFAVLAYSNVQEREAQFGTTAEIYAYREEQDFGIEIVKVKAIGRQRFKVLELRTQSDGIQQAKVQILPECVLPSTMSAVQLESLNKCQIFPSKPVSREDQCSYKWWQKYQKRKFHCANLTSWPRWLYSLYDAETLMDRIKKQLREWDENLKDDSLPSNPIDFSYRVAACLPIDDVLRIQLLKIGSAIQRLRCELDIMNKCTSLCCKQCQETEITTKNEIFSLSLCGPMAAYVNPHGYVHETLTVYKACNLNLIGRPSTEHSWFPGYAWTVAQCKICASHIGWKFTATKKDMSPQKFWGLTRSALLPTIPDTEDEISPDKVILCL
# Mode: degrader
# Cells: HEK293
test,setting,protein remaining [%]
HiBiT kinetics,"111.1 nM, 0.5 h",89
HiBiT kinetics,"0.05081 nM, 3 h",103
HiBiT kinetics,"0.4572 nM, 1 h",92.8
HiBiT kinetics,"37.04 nM, 6 h",28.6
HiBiT kinetics,"0.01694 nM, 6 h",101
HiBiT kinetics,"37.04 nM, 3 h",30.9
HiBiT kinetics,"12.35 nM, 0.5 h",88.3
HiBiT,37.04 nM,42.9
HiBiT,12.35 nM,40.9
HiBiT kinetics,"0.05081 nM, 0.5 h",104

# Block 2
# SMILES: C[C@H](NC(=O)c1cnc2n1[C@](C)(Cc1ccc(C#N)cc1)C(=O)N2c1cc(Cl)c(F)c(Cl)c1)C(=O)NC1(c2ccccn2)CC1
# Effect on: cell-free assay
# Technique: competition with immobilised ligand
# Concentration: 1 µM
target,remaining binding
"Ribosomal protein S6 kinase alpha-6, C-terminal kinase domain (RPS6KA6, Homo sapiens, UniProt Q9UK32)",100%
"Epidermal growth factor receptor (EGFR, Homo sapiens, UniProt P00533, T790M)",95%
"Phosphatidylinositol 4,5-bisphosphate 3-kinase catalytic subunit alpha isoform (PIK3CA, Homo sapiens, UniProt P42336, E542K)",100%
"Serine/threonine-protein kinase 36 (STK36, Homo sapiens, UniProt Q9NRP7)",100%
"RAC-beta serine/threonine-protein kinase (AKT2, Homo sapiens, UniProt P31751)",100%
"Receptor-type tyrosine-protein kinase FLT3 (FLT3, Homo sapiens, UniProt P36888, D835V/ITD)",100%
"Casein kinase I isoform alpha-like (CSNK1A1L, Homo sapiens, UniProt Q8N752)",100%
"Serine/threonine-protein kinase PLK1 (PLK1, Homo sapiens, UniProt P53350)",100%
"Serine/threonine-protein kinase SBK1 (SBK1, Homo sapiens, UniProt Q52WX2)",100%
"Mitogen-activated protein kinase kinase kinase 15 (MAP3K15, Homo sapiens, UniProt Q6ZN16)",76%
"SRSF protein kinase 1 (SRPK1, Homo sapiens, UniProt Q96SB4)",81%
"Serine/threonine-protein kinase STK11 (STK11, Homo sapiens, UniProt Q15831)",100%
"Mitogen-activated protein kinase 11 (MAPK11, Homo sapiens, UniProt Q15759)",100%

# Block 3
# Target: Mitogen-activated protein kinase kinase kinase kinase 5 (MAP4K5, Homo sapiens, UniProt Q9Y4K4)
# Sequence of UniProt Q9Y4K4 (whole entry, looked up): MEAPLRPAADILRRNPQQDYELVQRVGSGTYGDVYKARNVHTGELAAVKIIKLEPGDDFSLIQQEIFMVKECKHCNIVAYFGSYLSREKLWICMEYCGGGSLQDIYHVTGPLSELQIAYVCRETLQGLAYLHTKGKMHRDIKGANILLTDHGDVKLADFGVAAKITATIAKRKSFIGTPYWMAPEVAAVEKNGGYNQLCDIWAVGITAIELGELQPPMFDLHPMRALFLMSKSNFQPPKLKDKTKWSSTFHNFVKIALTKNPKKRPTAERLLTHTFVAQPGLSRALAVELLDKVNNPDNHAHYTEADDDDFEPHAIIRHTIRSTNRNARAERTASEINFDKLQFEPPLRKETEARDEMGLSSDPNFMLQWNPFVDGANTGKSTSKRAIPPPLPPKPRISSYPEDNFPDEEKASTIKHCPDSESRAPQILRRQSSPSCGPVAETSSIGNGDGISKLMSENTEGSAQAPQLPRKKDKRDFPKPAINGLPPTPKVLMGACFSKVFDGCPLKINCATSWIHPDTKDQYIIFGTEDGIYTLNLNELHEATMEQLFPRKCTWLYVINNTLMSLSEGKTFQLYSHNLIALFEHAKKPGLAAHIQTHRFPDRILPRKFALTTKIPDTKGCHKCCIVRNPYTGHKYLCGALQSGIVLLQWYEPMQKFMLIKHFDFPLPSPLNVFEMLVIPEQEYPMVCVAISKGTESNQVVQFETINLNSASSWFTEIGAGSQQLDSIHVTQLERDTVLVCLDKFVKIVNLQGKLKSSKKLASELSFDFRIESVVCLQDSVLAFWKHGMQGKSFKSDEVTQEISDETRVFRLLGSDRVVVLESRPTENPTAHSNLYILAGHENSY
# Effect on: enzyme activity
# Mode: inhibitor
# Concentration: 0.5 µM
# Relative to: control
Structure (SMILES),remaining activity [%]
CCCC(=O)Oc1ccc2[nH]c(C(=O)c3cc4ccccc4[nH]3)cc2c1,88
Fc1ccc(-c2nc3n(c2-c2ccncc2)CCS3)cc1,98.7
CC(=O)c1ccc(N2CCOCC2)cc1O,102
Cc1cc(Nc2nc(-c3ccccc3)nc3ccccc23)n[nH]1,20.2
O=C1NC(=O)C(c2c[nH]c3ccccc23)=C1c1c[nH]c2ccccc12,87.1
Cc1ccc(NC2=CC(=O)c3sc(C)nc3C2=O)cc1,96.9
Nc1nc(Nc2ccc(S(N)(=O)=O)cc2)nn1C(=O)c1c(F)cccc1F,45.3
CCc1[nH]c(-c2ccc(OC)cc2)nc1-c1ccncc1,106
O=S(=O)(NCCNC/C=C/c1ccc(Br)cc1)c1cccc2cnccc12,30.9
COc1ccc(S(=O)(=O)N(CCO)c2ccccc2CN(C)CC=Cc2ccc(Cl)cc2)cc1,99.7
CC#CC(=O)Nc1cc2c(Nc3ccc(F)c(Cl)c3)ncnc2cn1,100
CC[n+]1c(/C=C/N(C)c2ccccc2)n(-c2ccccc2)c2ccc(-c3nc4ccccc4s3)cc21,91.7
Oc1ccc(Nc2nc(-c3ccc(Cl)cc3)cs2)cc1,110
N#CC(=C(N)Sc1ccc(N)cc1)c1ccccc1C(F)(F)F,94
NC(=O)c1ccc(N(C(N)=O)c2c(F)cccc2F)nc1-c1ccc(F)cc1F,98.3
CSc1nc(-c2ccnc(N[C@@H](C)c3ccccc3)c2)c(-c2ccc(F)cc2)[nH]1 (racemic),85.6
Nc1ncnc2c1cnn2-c1ccccc1,87.2
CC(C)(C)n1nc(Cc2cccc3ccccc23)c2c(N)ncnc21,53.9
O=C1Cc2c([nH]c3ccc([N+](=O)[O-])cc23)-c2ccccc2N1,15.9
Nc1nccc(-c2c(-c3ccc(F)cc3)ncn2C2CCNCC2)n1,68.1
Cc1cncc2cccc(S(=O)(=O)N3CCCN(C(=O)CN)C[C@@H]3C)c12,103
COc1cc(Nc2c(C#N)cnc3cc(OCCCN4CCN(C)CC4)c(OC)cc23)c(Cl)cc1Cl,1.73

# Block 4
# Species: human
# Medium: microsomes or S9
# Concentration: 2 µM
# Time: 0.5 h
Structure (SMILES),remaining compound [%]
c1ccc(COc2ccccc2-c2cscn2)cc1,3.92
COc1c(Br)cc(OCCc2c(O)nc(C)c(Br)c2O)cc1Br,0.235
O=c1c2c(ccn1Cc1cc(F)ccc1F)ccn2Cc1cccnc1,69.9
Cc1cnn(CCNC(C)C(=O)Nc2sccc2C(N)=O)c1 (stereo not drawn),99.2
CC(C)NC(=O)NC(=O)C(C)N(C)Cc1ccccc1Br (stereo not drawn),0.45
Cc1nc(=N)nc2ncc(C(=O)c3ccccc3O)cn12,75.9
CCC(=O)c1ccc(CCCCCC(=O)O)s1,19.5
COc1ccc(-c2c(-c3ccccc3)nn(-c3ccc(Cl)cc3Cl)c2N(C)C)cc1OC,3.73
COc1ccc2c(n1)c1c(n2-c2ccc(N(C)C)cc2)CCC1,31.4
Cc1ccc(C2c3nc[nH]c3CCN2C(=O)Nc2ccc(C#N)cc2)cc1F (stereo not drawn),39.9
CCCc1nc(C#N)c(NCc2ccc3c(c2)OCO3)o1,4.25
Cc1nc2c(c(=O)n1C)CN(C(=O)[C@@H]1CCCN1C1CCN(C)CC1)C2,90.9
Cn1ncc2c(NNC(=O)c3ccc(O)cc3)ncnc21,87.3
COc1ccc(CC(=O)OCCn2cc(Br)ccc2=O)nc1,27.8
COc1cc(-c2csc(N)n2)cc(Br)c1O,44.9
O=C1Nc2cc3ccc(OCc4ccccc4)cc3c3cccc1c23,50.6
Cc1cc(C2CN(C(=O)Cc3ccon3)CCO2)ccc1F (stereo not drawn),87.7
c1ccc(-c2noc(Cc3cn4ccccc4n3)n2)nc1,94.9
